Published values pooled from the literature.
Parts stem from different laboratories: compare values within a part only. Substitutions count along the parent as printed.

Sample 1 — target: OGT, full length, His-tagged (human); method: phage display, sequencing; medium: in vitro; tested at: 1 µg OGT; reference: input library; direction: higher = stronger binding; measurement: fold enrichment; starting sequence: peptide; GDFPVMFMPKYSIIY
Notes: single substitutions, 15-mer displayed peptide, unchanged parent 5.27
GDFPVMQMPKYSIIY [F7Q]: 0.92 fold
VDFPVMFMPKYSIIY [G1V]: 5.17 fold
GDFPVMFMPKYSIQY [I14Q]: 1.96 fold
GDFPVVFMPKYSIIY [M6V]: 3.36 fold
GDFPVMFMPKYSIIM [Y15M]: 2.58 fold
GDFPVMFMPSYSIIY [K10S]: 1.25 fold
GDFKVMFMPKYSIIY [P4K]: 5.94 fold
GDFPVMFMPKYSIII [Y15I]: 4.87 fold

Sample 2 — method: RNA Bind-n-Seq; molecule type: RNA; medium: in vitro; tested at: 20 nM; notes: 6-mer, flanks averaged, single round; together with: 150 mM LiCl; reference: input library; direction: higher = stronger binding; measurement: 6-mer enrichment (R)
Target: TAR DNA-binding protein 43, full length, His tag (TARDBP, Homo sapiens, UniProt Q13148, residues 1-414)
UCUUGU: 1.08
GAGGGU: 1.24
CGCAUU: 0.905
CCUAAA: 0.857
GGAGGG: 1.4
AUUGAA: 0.93
GCGACC: 0.881
ACUUAA: 0.851

Sample 3 — target: CCNF, cyclin fold, Cln2 fusion (human); method: yeast growth competition, sequencing; medium: yeast; notes: strong parent motif; reference: not given; direction: higher = stronger binding; measurement: normalised enrichment score; starting sequence: viral docking peptide; TSVRRALFTGGSD
A6V: 7.74
L7K: 0.571
F8V: 1.08
R4V: 6.85
V3Q: 2.2
A6I: 7.52
R5T: 0.373
F8I: 2.04
F8L: 3.06
V3G: 3.32
L7V: 1.15
S12E: 7.81
S12T: 8.17
G10V: 7.79
L7Y: 0.923
R5V: 1.27
R5Y: 0.409

Sample 4 — method: DNA-protein interaction ELISA; molecule type: double-stranded DNA, one strand shown; medium: in vitro, bacterial lysate; tested at: not given; notes: whole dsDNA probe, crude lysate protein; reference: highest signal in screen; direction: higher = stronger binding; measurement: relative absorbance
Target: Probable WRKY transcription factor 33, C-terminal DNA-binding domain (WRKY33, Arabidopsis thaliana, UniProt Q8S8P5, residues 346-449)
Construct (chain): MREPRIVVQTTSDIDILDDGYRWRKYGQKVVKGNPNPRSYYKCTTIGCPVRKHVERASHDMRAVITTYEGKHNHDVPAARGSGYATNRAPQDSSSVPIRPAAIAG
AAAAAACGCTCCGTTTTTGCAATGCGAAAA: 29.7 % of maximum
AAAAAATTACTCCTAGCCCTCATTCAAAAA: 65.7 % of maximum
AAAAAAGCTTCGCGCCAGCGGGAAAA: 43.6 % of maximum
AAAAAATCGGGGATCCGGGCGGTTGCAAAA: 33.1 % of maximum
AAAAAAATTTTTAGTTTTAATTTTGGAAAA: 34.4 % of maximum
AAAAAACTAGGTATCGGTAGGCGCCGAAAA: 34.1 % of maximum
AAAAAATTCGTATCTGTACCCTATGCAAAA: 45.7 % of maximum
AAAAAAGAAATACCAGAAACTATCATAAAA: 59.9 % of maximum

Excerpt of the above (sample 3):
G10V: 7.79
V3Q: 2.2
L7V: 1.15
R5T: 0.373
F8V: 1.08
F8L: 3.06
A6V: 7.74
